{"data": "Results from different studies", "note": "A part holds a random share of what one study measured. Changes are numbered by the printed parent chain."}
{"data": "Sample 1", "Compound": "COc1cccc(CNC(=O)c2nc3scc(COCc4ccc(C(=O)O)cc4)c3c(=O)[nH]2)c1", "read-out": "cell-free assay", "method": "competition with immobilised ligand", "tested at": "1 µM"}
{"target": "MKNK1 (Homo sapiens, UniProt Q9BUB5)", "remaining binding [%]": 83.1}
{"target": "LTK (Homo sapiens, UniProt P29376)", "remaining binding [%]": 70.6}
{"target": "PIP4K2B (Homo sapiens, UniProt P78356)", "remaining binding [%]": 100}
{"target": "DAPK3 (Homo sapiens, UniProt O43293)", "remaining binding [%]": 92.2}
{"target": "FLT3 (Homo sapiens, UniProt P36888, D835Y)", "remaining binding [%]": 94.3}
{"target": "BLK (Homo sapiens, UniProt P51451)", "remaining binding [%]": 100}
{"target": "KIT (Homo sapiens, UniProt P10721, D816H)", "remaining binding [%]": 59}
{"target": "INSRR (Homo sapiens, UniProt P14616)", "remaining binding [%]": 100}
{"target": "CSNK1E (Homo sapiens, UniProt P49674)", "remaining binding [%]": 100}
{"target": "EGFR (Homo sapiens, UniProt P00533, del747-752/P753S)", "remaining binding [%]": 66.1}
{"target": "CAMK1 (Homo sapiens, UniProt Q14012)", "remaining binding [%]": 88.2}
{"target": "Aurora kinase A (AURKA, Homo sapiens, UniProt O14965)", "remaining binding [%]": 80.9}
{"target": "CAMK2B (Homo sapiens, UniProt Q13554)", "remaining binding [%]": 96.8}
{"target": "Tyrosine-protein kinase ABL1, phosphorylated (ABL1, Homo sapiens, UniProt P00519)", "remaining binding [%]": 68.6}
{"data": "Sample 2", "cell line": "A-375", "tested at": "100 µM", "time": "18 h"}
{"SMILES": "CN1C(C(=O)Nc2ccccn2)=C(O)c2sc(Cl)cc2S1(=O)=O", "viability": "75.3%"}
{"SMILES": "CC(C)Cc1ccc(C(C)C(=O)O)cc1 (stereo not shown)", "viability": "104%"}
{"SMILES": "Cc1ccnc2c1NC(=O)c1cccnc1N2C1CC1", "viability": "88.4%"}
{"data": "Sample 3", "host": "mouse", "sample": "microsomes or S9", "tested at": "2 µM", "time": "0.5 h"}
{"SMILES": "CCn1nc(CN[C@@H]2CCC(=O)N[C@H]2c2ccnn2C)c2ccccc21", "remaining compound": "55.9%"}
{"SMILES": "CC(C)CCN(C)C1CCN(S(=O)(=O)c2ccc(C(C)(C)C)cc2)CC1", "remaining compound": "3.86%"}
{"SMILES": "Cn1ccnc1CC1CCN(c2cnccn2)CC1", "remaining compound": "33.8%"}
{"data": "Sample 4", "target": "ATF7, bZIP domain (human)", "method": "DHFR protein complementation", "sample": "yeast", "setting": "single substitutions, most at no-binding floor", "reference": "wild-type JUN-FOS pair", "direction": "higher = stronger binding", "starting sequence": "JUN, bZIP domain (human); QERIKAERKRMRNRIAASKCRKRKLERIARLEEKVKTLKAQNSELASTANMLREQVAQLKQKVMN; partner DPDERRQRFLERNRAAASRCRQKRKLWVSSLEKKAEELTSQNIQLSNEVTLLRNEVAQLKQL"}
{"Change": "K39P", "binding fitness [natural log]": -1.48}
{"Change": "A57Q", "binding fitness [natural log]": -1.02}
{"Change": "L31N", "binding fitness [natural log]": -1.46}
{"Change": "E54C", "binding fitness [natural log]": -0.985}
{"Change": "E44T", "binding fitness [natural log]": -1.11}
{"Change": "Q55I", "binding fitness [natural log]": -1.07}
{"Change": "K34L", "binding fitness [natural log]": -0.899}
{"Change": "L45N", "binding fitness [natural log]": -1.48}
{"note": "Excerpt of the above (sample 3):"}
{"SMILES": "CCn1nc(CN[C@@H]2CCC(=O)N[C@H]2c2ccnn2C)c2ccccc21", "remaining compound": "55.9%"}
{"SMILES": "CC(C)CCN(C)C1CCN(S(=O)(=O)c2ccc(C(C)(C)C)cc2)CC1", "remaining compound": "3.86%"}
{"SMILES": "Cn1ccnc1CC1CCN(c2cnccn2)CC1", "remaining compound": "33.8%"}
